Measured values gathered from unrelated publications.
Each numbered part is a random draw from the data of one study; scales do not carry over between parts.

Study 1
Target: Interferon regulatory factor 7, full length, phosphomimetic (IRF7, Homo sapiens, UniProt Q92985, residues 1-503, S471D/S472D/S475D/S476D/S477D/S483D/S484D/S487D)
Chain of UniProt Q92985 (whole entry, unmodified, looked up): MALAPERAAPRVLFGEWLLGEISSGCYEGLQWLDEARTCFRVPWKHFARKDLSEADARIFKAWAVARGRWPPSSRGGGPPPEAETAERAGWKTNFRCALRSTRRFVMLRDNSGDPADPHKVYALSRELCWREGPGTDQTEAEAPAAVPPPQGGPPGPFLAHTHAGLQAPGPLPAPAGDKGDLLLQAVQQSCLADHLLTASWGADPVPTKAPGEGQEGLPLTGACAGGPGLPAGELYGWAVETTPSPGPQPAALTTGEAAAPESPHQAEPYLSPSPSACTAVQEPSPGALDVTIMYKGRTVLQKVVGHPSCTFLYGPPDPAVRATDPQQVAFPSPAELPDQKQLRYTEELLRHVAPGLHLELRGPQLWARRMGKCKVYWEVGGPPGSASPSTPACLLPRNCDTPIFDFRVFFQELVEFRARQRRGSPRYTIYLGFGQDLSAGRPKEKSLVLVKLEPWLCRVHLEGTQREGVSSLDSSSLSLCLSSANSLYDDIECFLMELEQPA
Method: protein-binding microarray
Molecule type: double-stranded DNA, one strand shown
Sample: in vitro
Tested at: 2200 nM top
Setting: 60-bp whole probe
Together with: salmon DNA 0.4 mg/ml
Reference: random background probes
Direction: higher = stronger binding
Constant ends, left off below: GCCTAGCAC … GTCTTGATTCGCTTGACGCTGCTG
| Strand | fitted relative affinity [z-score] |
| --- | --- |
| GACGATATCAGACTGGAAACGTGCTAG | 0.136 |
| GACGGTTTGGGGTATCGGGACGTGCTA | 0.537 |
| TCACTGCTCCTCTTTTTTACTGTGCTA | 1.77 |
| GACTATTCCAGTTTCGAGACGTGCTAG | 4.4 |
| TTAGGTCTCGTTCTCCTTTAGTGCTAG | 1.87 |
| TCAATTTTGGTTTTCATACTGTGCTAG | 2.78 |
| TTAGGTATCGGTCTCGGGTAGTGCTAG | 0.586 |
| GACGGTATCGGCTATCGGGACGTGCTA | -0.434 |
| AACGGTATCGGACTGGGGACGTGCTAG | -0.156 |
| TTAGGACTGGGGTTTCGTTTAGTGCTA | 2.12 |
| TCATTTCCAATTCTCTTACTGTGCTAG | 2.99 |
| TACGGTCTCGGTTTCGGGACGTGCTAG | 4.31 |

Study 2
Target: Histone acetyltransferase KAT6A, winged helix 1, GST fusion (KAT6A, Homo sapiens, UniProt Q92794, residues 1-85)
Method: protein binding microarray
Molecule type: double-stranded DNA, one strand shown
Sample: in vitro
Tested at: not given
Setting: 8-mer, flanks averaged, mean of 2 arrays, mostly near background
Reference: not given
Direction: higher = stronger binding
Residues (chain): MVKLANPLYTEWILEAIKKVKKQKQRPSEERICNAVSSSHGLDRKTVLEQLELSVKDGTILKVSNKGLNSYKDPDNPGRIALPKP
| Strand | E-score |
| --- | --- |
| AACCCAGA | -0.25 |
| ATGTCTAC | -0.0132 |
| AAAGGATA | -0.213 |
| GCTTATAC | 0.107 |
| CTGTCAAC | -0.162 |
| AACCCGTC | 0.376 |
| ATGAGACA | -0.198 |
| CCATAGTA | -0.151 |
| CTATTTTA | 0.00449 |
| ATTTAGAA | -0.0917 |
| ACCTAATA | -0.0278 |
| ATTGGCAA | -0.207 |
| ATTCAGGA | -0.12 |
| GTATTGGA | -0.00724 |
| ACCATCCC | -0.112 |
| CGGGGGTC | 0.259 |
| ATGAAGAA | -0.119 |
| AAAGCGCG | 0.423 |
| CAAGCGAC | 0.216 |
| GCATCTAC | 0.0873 |
| AGACCCGC | 0.326 |
| TAACGTCA | -0.196 |
| ATTATAAC | 0.0901 |
| CTCAGACC | -0.114 |

Study 3
Target: Sal-like protein 4, full length isoform A (SALL4, Homo sapiens, UniProt Q9UJQ4, residues 1-1053)
Chain of UniProt Q9UJQ4 (whole entry, looked up): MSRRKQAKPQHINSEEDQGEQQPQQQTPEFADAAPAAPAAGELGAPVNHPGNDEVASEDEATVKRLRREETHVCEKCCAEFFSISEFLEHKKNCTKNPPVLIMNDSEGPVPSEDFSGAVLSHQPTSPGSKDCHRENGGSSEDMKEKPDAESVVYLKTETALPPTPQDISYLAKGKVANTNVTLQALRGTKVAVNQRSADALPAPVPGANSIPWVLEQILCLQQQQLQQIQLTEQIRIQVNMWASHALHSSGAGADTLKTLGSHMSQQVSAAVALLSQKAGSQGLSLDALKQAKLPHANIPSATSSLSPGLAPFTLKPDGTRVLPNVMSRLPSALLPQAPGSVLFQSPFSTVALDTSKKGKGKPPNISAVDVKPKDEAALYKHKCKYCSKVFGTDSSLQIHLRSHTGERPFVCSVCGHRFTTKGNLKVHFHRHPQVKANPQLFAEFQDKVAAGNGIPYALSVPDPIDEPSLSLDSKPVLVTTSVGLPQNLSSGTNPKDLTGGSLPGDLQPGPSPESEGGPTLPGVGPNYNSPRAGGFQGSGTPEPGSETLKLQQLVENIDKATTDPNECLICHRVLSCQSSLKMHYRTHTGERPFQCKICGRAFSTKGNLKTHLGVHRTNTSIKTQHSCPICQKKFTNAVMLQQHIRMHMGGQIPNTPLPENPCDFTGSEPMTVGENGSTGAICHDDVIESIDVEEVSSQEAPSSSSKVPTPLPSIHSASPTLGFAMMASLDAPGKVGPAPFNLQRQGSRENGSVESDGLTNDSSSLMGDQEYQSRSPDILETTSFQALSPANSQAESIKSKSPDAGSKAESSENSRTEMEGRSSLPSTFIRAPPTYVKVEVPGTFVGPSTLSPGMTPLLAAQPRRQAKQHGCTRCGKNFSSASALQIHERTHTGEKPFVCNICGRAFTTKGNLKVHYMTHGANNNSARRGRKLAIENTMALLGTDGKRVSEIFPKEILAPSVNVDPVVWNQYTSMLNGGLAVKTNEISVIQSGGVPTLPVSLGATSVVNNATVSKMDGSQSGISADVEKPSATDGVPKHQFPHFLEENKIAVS
Method: universal PBM
Molecule type: double-stranded DNA, one strand shown
Sample: in vitro
Tested at: 600 nM
Setting: 8-mer, flanks averaged, mean of replicates
Direction: higher = stronger binding
| Strand | E-score |
| --- | --- |
| GTCACATA | 0.198 |
| GTGTATGA | 0.258 |
| AGAACGCA | -0.0273 |
| CCACACAA | -0.0286 |
| AAGACAGA | 0.179 |
| ATACCGGC | -0.143 |
| AAACCCAC | -0.0667 |
| CAACGGCA | -0.169 |
| TAGTATGA | 0.311 |
| CACCAGAG | -0.223 |
| AGATAAGC | 0.138 |
| CATCTCGA | -0.0169 |
| GTAGTCGA | 0.00737 |
| GCGCACCC | -0.315 |
| AGCCATTA | 0.2 |
| CGGTCCCA | -0.305 |
| CCTACTGA | -0.0185 |

Study 4
Target: RNA binding protein fox-1 homolog 2, RRM domain, GST-SBP tag (RBFOX2, Homo sapiens, UniProt O43251-10, residues 100-194)
Method: RNA Bind-n-Seq
Molecule type: RNA
Sample: in vitro
Tested at: 365 nM
Setting: natural RNA segment, single round, ends assumed
Reference: no-protein control
Direction: higher = stronger binding
Constant ends, left off below: GGGAGUUCUACAGUCCGACGAUC … UGGAAUUCUCGGGUGCCAA
Target sequence (chain): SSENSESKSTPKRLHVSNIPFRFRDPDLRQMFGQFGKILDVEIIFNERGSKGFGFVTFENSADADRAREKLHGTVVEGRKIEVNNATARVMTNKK
| Strand | RBNS enrichment (R) |
| --- | --- |
| GGGUUCGCCUCCCCGAGGCUCCGUUUCCAAGCGAUUCAACGUUAACUACCUUUUUCUGUAUGCUUUCCAAAGUGUUUCCCUCAAUGUUUGAUUAAAACAUUUGCUCAUAG | 0.387 |
| AACUUUCCUAGAUAAACUUUAAGGUUUCUAUACUGAGGCUUUUAUAAUGAACGCACCUCGUUAAGUAUUUAUACUUGUAACUAACCCCAGGCAGGGACCUCAGCUUUGUU | 0.492 |
| ACACCCUUCCUAUUCUUUUUCAUUCUUCUUGCAGUUCUGGGAGUAAAGCUCCCAGCAUAUUUAGAUAAUAGGGCAGGGGAAGCACCCUCUUUCUUUCUAGACUGGAUUAU | 0.687 |
| CCUAUCAGGAGGAUUCCUUCACAAUGUAUUUUAUUUGCUAGACUUUGGUUGGGAGGGAAAAGGACAUUAAUUUGAAGUUUCAUGUUAUUCAUGCCAGGAUUGUUUGAUAG | 1.13 |
| CACAGCAAGUAGGCCUCAAAGUAAUCUUCCUCUUUCCCAUCAAUCAUCUUCUGCCAAGCAUUCAGGCAGAGCAGCUGUUAACUGUGAUUCAAAGUCAGAAAAACAUCAAG | 0.984 |
| GCUUUUUCAGAUUGUGUGGUAGCCAUAGGACCUGACCCAGUUUGUGCCUCCUGGGAUCCUCAUCCCCAAUCCUGCUCUUACAUAAACCUUUUUCUUGUUUUAGUAAUUUG | 0.307 |
| CCUUUCAUAGCCUUAAUUCAUGUCAUGUAUAAAUUAACAUAAAUCAUGUCUAUUUACAUAGUGAAGGUCCAGAAUAAAUGAAAUAAUUUUGCUACCUUGGUGUUGAAACA | 0.318 |
| UUUGAGACAGGUGUUUUCAUCUUCUCUCAGCUCAGUGCUGUUUUGUACAGUCUCUGUGGCUUGGUUGAGUAUGCUCUUUCCUGUGCCAGGUCUUGCUCUGGCUGUUCGCU | 0.4 |
| UCGGAGCUAAGUGUAUAUAUGAGUAGUUUGCCAAUGGAUAACACAGUGUAAACAGUAGACACCCAGAAAAUCGUGACUUCUGUGUUCUCUCCAUUUGAGUAUUUUGUAAU | 0.48 |
| GCAGCACAAGGUGCACUUCAUGGUCUCACUGGACCAUUCCAUGUGGUUCCACGCCCCCUUCCGAGCUGACCACUGGAUGCUCUAUGAAUGCGAGAGCCCCUGGGCCGGUG | 1.1 |
| AGUGUUUUCUUCCCUGUGCCUUAAGGGCCCUCAUCCCAGCAGCCCAUAUAGCCAGCAAAUGGAGGACUCCUAACUUCAGCACAAGUGGGUUUGGAGUGGCAGAGGCCAUA | 0.331 |
| ACUCCAGGCUCUGACAGGUAGUGGCCUGGGCCCAGCUGCAAGCCAUGCUCCCCUGAGCUAUAACCCCAGAAACUCUGCACUUUAUCAAGAAAGGACCCCCUCCUUAUGGA | 0.582 |

Study 5
Target: RING finger protein unkempt homolog, zinc fingers 1-6, GST-SBP tag (UNK, Homo sapiens, UniProt Q9C0B0, residues 30-357)
Method: RNA Bind-n-Seq
Molecule type: RNA
Sample: in vitro
Tested at: not given
Setting: RNA with constant flanks, human and mouse sites, ends assumed
Reference: input RNA pool
Direction: higher = stronger binding
Constant ends, left off below: GGGAGUUCUACAGUCCGACGAUC … CAACAGAGGAUUGAGCAUCA
Target sequence (chain): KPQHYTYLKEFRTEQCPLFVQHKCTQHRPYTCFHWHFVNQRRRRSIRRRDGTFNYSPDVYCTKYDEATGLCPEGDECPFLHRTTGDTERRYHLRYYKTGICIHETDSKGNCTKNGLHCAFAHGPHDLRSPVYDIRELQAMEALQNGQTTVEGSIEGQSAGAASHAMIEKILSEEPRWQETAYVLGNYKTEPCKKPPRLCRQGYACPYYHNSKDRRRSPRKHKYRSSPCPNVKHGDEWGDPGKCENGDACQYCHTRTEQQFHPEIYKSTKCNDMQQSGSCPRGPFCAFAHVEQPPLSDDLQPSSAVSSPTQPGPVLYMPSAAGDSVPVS
| Strand | bound/input enrichment |
| --- | --- |
| UUUAAGCAGCAGAAGUUACUAAGACCCAAUAUAUUUGAAGACAUUUCCAAAAAAUAUAAACAACACCAGCCUACCGACAGGGUCACAGAAAACCUGAAGAAGUUACUUUCAUAUUGUGAA | 0.595 ratio |
| AACCUCCUCAUCCAGAGCAUUCCGGGCUUCUGGGGGCAAGCUUUUCAGAACCAUCCCCAGCUGUCAGCUUUUCUGAAUACCAAAGAUAAGGAGGUAUUGAGCUAUUUGAACAGACUGGAG | 0.128 ratio |
| CUGGCAGGGGCUGCUGAGGAGGAGGAGAGCGGGCUGCCCGGGGCCGGGCCUGGCUCCUGUGCUUUUGGGGAGGAGAUUCCCAUGGAUGGGGAGCCUCCUGCCUCCUCGGGCCUGGGGCUC | 0.275 ratio |
| GAGUACAUCAAACUCAACCAGCAAAAAACAGCAGAAGAAGAAAAUCCAGAACAUGUAGAAAUUCAGAAGAUGAUGGAUUCCCUCUUCUUAAAAUUGGAUGCCCUCUCAAACUUCCACUUU | 0.302 ratio |
| GGUGAACUGGCAGCAGAGGUGGCGAGCAGCAAUGGAUACACUUGCCGUGACUGCAGGAUGCUCUCAGCGCGCACUGACGCACUCACAGCCCACUCUGCCAUCCACGGGACCACCUCCAGG | 0.0604 ratio |
| CUGGGCCUCAGUUCUGGAGCCAGCUCUGCCCGAAGUUCUGCCCCUACUUCUGUACUGGGUUCACUCCAAAAUCCCAUCCUUCAGACCCACUCAGGAUCUAUCUCUAGUCCCGAUCUUGUU | 0.304 ratio |
| AGGAGGAGGUUUGCUUCCCGGAUCAUAGAUAGUCUGUUUAAUACAGUAACUGAUAAGAAGAUAGCUAUUUUGGGAUUUGCAUUCAAAAAGGACACUGGUGAUACAAGAGAAUCUUCUAGU | 3.88 ratio |
| GUAAAAGAAGAACAACUUAAAAAUUCUGCAGAGGAAGAAGUACUAUCAUCAGAAAAACAAUUAAUUAAAAUGGAAAAGAAGGAAGAAGAAGAAAAUGGAGAAAGACCUAGAAAGAAAAAG | 2.15 ratio |
| UUGCCAUAUUAAUCAUCUUAGUUCCAUACACACUGAGACUUUAAAAGGGAAAAACCACUCUAGCAAAUAAUUGUCAAUUAUAAACCUGUAUGUAAAACAUUCUUGAAAACCUAGAGUUGG | 1.12 ratio |
| GCCUCCCUGAUUCCUGUGGGAACCCCGGGUUCAGGGCCAGGGCCUCCUUGGAAUAAAUGGUUAUUGUUACUAGGUCCCCACCUUCCCUCUUUUCUGGAAGCCAAAGUCACCCUCCCCAAU | 0.367 ratio |
| AAAUAUCCUCAGCUGUUCCAAGUGACACUGGAUAUAGAAGUCCAGCCCCAAGACAAAGUGAUCGACUUAACUCCACCAUGGGAACACUACUGCACAAAAGAUGUGAACCCCAGCAUCCUC | 0.212 ratio |

Repeated from above (study 3):
| Strand | E-score |
| --- | --- |
| CATCTCGA | -0.0169 |
| GTAGTCGA | 0.00737 |
| GCGCACCC | -0.315 |
| AGCCATTA | 0.2 |
| CGGTCCCA | -0.305 |
